Measurements gathered from unrelated publications.
Organism: Mycobacterium tuberculosis

| SMILES | assay | test system | conditions | MIC |
| --- | --- | --- | --- | --- |
| N#Cc1cc2cccnc2nc1N1CCN(CC(=O)Nc2ccc(F)c(F)c2)CC1 | microplate Alamar Blue | H37Rv |  | 61.2 µM |
| Cc1c(-c2ccccc2)c(=O)n2c([nH]c3ccccc32)c1C#N | microbial growth, resazurin | H37RV |  | 8 µg/mL |
| CCCCNC=C1C(=O)C(=O)c2ccccc2C1=O | resazurin microplate | H37Rv | 7 days + 24 h | > 147 µM |
| Cc1[nH]c(=O)c(CNC(=O)c2ccc(Br)nc2)c2c1CCCCC2 | microbial growth, resazurin | H37RV |  | > 50 µg/mL |
| CO[C@H]1/C=C/O[C@@]2(C)Oc3c(C)c(O)c4c(O)c(c(/C=N/N5CCN(C)CC5)c(O)c4c3C2=O)NC(=O)/C(C)=C\C=C\[C@H](C)[C@H](O)[C@@H](C)[C@@H](O)[C@@H](C)[C@H](OC(C)=O)[C@@H]1C | microplate Alamar Blue | H37Rv |  | 3.79 µM |
| O=C1c2ccccc2C(=O)c2c1oc(NC1CCCCC1)c2C1CCN(Cc2ccccc2)CC1 | resazurin microplate | H37Rv | 7 days + 24 h | 17 to 34 µM |
| CC[C@@H](CO)NCCN[C@@H](CC)CO | microplate Alamar Blue | H37Rv |  | 30.6 µM |
| CC(C)(C)Nc1oc2c(c1C1CCN(Cc3ccccc3)CC1)C(=O)c1ccccc1C2=O | resazurin microplate | H37Rv | 7 days + 24 h | 9 µM |
| Cc1c(CNC(=O)c2ccc(C(F)(F)F)nc2)c(=O)[nH]c2ccccc12 | microbial growth, resazurin | H37RV |  | > 50 µg/mL |
| C[C@H]1COC2(CCN(c3nc(=O)c4cc(C(F)(F)F)cc([N+](=O)[O-])c4s3)CC2)O1 |  | H37Rv, replicating |  | 0.003 µM |
| CCCCNc1oc2c(c1-c1ccc(Cl)cc1)C(=O)c1ccccc1C2=O | resazurin microplate | H37Rv | 7 days + 24 h | 84 µM |
| Cc1c(Cc2ccccn2)c(=O)n2c([nH]c3ccccc32)c1C#N | microbial growth, resazurin | H37RV |  | 4 µg/mL |
| O=c1c2ccccc2[se]n1-c1ccc(F)cc1 | microbial growth, resazurin | H37RV |  | 25 µg/mL |
| O=C(c1cc2c(F)cc(F)cc2[nH]1)N1CCNCC1 | microplate alamarBlue | H37Rv |  | > 32 µg/mL |
| COc1cc(-c2c(NC(C)(C)C)oc3c2C(=O)c2ccccc2C3=O)cc(OC)c1OC | resazurin microplate | H37Rv | 7 days + 24 h | > 147 µM |
| N#Cc1cc2cccnc2nc1N1CCN(CC(=O)Nc2ccccc2[N+](=O)[O-])CC1 | microplate Alamar Blue | H37Rv |  | 29.9 µM |
| Cc1ccc2c(c1)C=CC1(CCc3c(nnn3Cc3ccccc3)C1)O2 (centres unmarked) | MABA | H37Rv | 7 days | > 25 µg/mL |
| N#Cc1cc2cccnc2nc1N1CCN(CC(=O)Nc2ccccc2)CC1 | microplate Alamar Blue | H37Rv |  | 33.6 µM |
| O=C(NC(=O)c1cc2c(F)cc(F)cc2[nH]1)c1cccc(F)c1 | microplate alamarBlue | H37Rv |  | > 32 µg/mL |
| CCc1ccc(NCC(=O)N2CCN(c3nc4ncccc4cc3C#N)CC2)cc1 | microplate Alamar Blue | H37Rv |  | 31.2 µM |
| Cc1c(Cc2ccc(C(C)(C)C)cc2)c(=O)n2c([nH]c3ccccc32)c1C#N | microbial growth, resazurin | H37RV |  | 0.5 µg/mL |
| CO[C@H]1/C=C/O[C@@]2(C)Oc3c(C)c(O)c4c(O)c(c(/C=N/N5CCN(C)CC5)c(O)c4c3C2=O)NC(=O)/C(C)=C\C=C\[C@H](C)[C@H](O)[C@@H](C)[C@@H](O)[C@@H](C)[C@H](OC(C)=O)[C@@H]1C | microbial growth, resazurin | H37RV | 7 days | 0.411 µg/mL |
| Cc1[nH]c(=O)c(CNC(=O)c2ccc([N+](=O)[O-])s2)c2c1CCC2 | microbial growth, resazurin | H37RV |  | > 50 µg/mL |
| CC(C)(C)NC=C1C(=O)C(=O)c2ccccc2C1=O | resazurin microplate | H37Rv | 7 days + 24 h | 62 to 124 µM |

| SMILES | assay | test system | conditions | MIC |
| --- | --- | --- | --- | --- |
| Cc1[nH]c(=O)c(NC(=O)c2ccc(C(F)(F)F)nc2)c2c1CCCC2 | microbial growth, resazurin | H37RV |  | > 50 µg/mL |
| COc1ccccc1Cn1[se]c2ccccc2c1=O | microbial growth, resazurin | H37RV |  | 12.5 µg/mL |
| Cc1cc2c(cc1Cl)C=CC1(CCc3c(nnn3-c3ccc(Cl)cc3)C1)O2 (centres unmarked) | microbial growth, resazurin | H37RV | 7 days | 3.12 µg/mL |
| O=C1c2ccccc2NC(c2cc([N+](=O)[O-])ccc2O)N1/N=C/c1cc([N+](=O)[O-])ccc1O (centres unmarked) | microbial growth | ATCC25177 H37RA |  | 142 µM |
| Cc1c2c([nH]c(=O)c1CNC(=O)c1ccc([N+](=O)[O-])o1)CCCC2 | microbial growth, resazurin | H37RV |  | > 50 µg/mL |
| O=c1c2ccccc2[se]n1C1CCCC1 | microbial growth, resazurin | H37RV |  | 25 µg/mL |
| Cc1ccc2c(c1)C=CC1(CCc3c(nnn3-c3ccc(Cl)cc3)C1)O2 (centres unmarked) | microbial growth, resazurin | H37RV | 7 days | 12.5 µg/mL |
| COc1cc(OC)cc(-c2ccc(C(=O)NCc3c(C)cc(-c4ccccc4)[nH]c3=O)cc2)c1 | microbial growth, resazurin | H37RV |  | > 20 µg/mL |
| CC[C@@H](CO)NCCN[C@@H](CC)CO | microbial growth, resazurin | H37RV |  | 7.6 µM |
| Cc1c(Cc2ccc(-c3ccccn3)cc2)c(=O)n2c([nH]c3ccccc32)c1C#N | microbial growth, resazurin | H37RV |  | 4 µg/mL |
| Cc1ccc(-n2nnc3c2CCC2(C=Cc4cc(Cl)c(C)cc4O2)C3)cc1 (centres unmarked) | MABA | H37Rv | 7 days | > 25 µg/mL |
| O=C(OCc1ccccc1)[C@@H]1COC(c2cccnc2)=N1 |  | H37Rv | 168 h | > 50 µM |
| Cc1c(Cc2ccc(Cl)nc2)c(=O)n2c([nH]c3ccccc32)c1C#N | microbial growth, resazurin | H37RV |  | 0.5 µg/mL |
| Cc1c2c([nH]c(=O)c1CNC(=O)c1cccs1)CCCC2 | microbial growth, resazurin | H37RV |  | > 50 µg/mL |
| COc1cccc(Nc2ccc([N+](=O)[O-])c3nonc23)c1 | microbial growth | H37RV |  | 8 µM |
| COc1ccc(-c2cc(-c3ccc(-n4cccc4)cc3)nc(N)n2)cc1 | microbial growth, resazurin | H37RV | 7 days | 0.78 µg/mL |
| N#Cc1cc2cccnc2nc1N1CCN(CC(=O)Nc2ccccc2F)CC1 | microplate Alamar Blue | H37Rv |  | 32 µM |
| Cc1cc(=O)[nH]c2c1C(=O)c1c(CCCCCCCC(C)C)cc(=O)[nH]c1C2=O | Microplate Alamar Blue | H37Rv | replicating bacteria | 0.07 µg/mL |
| NNC(=O)c1ccncc1 | microplate Alamar Blue | H37Rv |  | 2.62 µM |
| CC(C)=CCC/C(C)=C/CNCCNC1C2CC3CC(C2)CC1C3 (centres unmarked) | microbial growth, resazurin | ATCC35801 ERDMAN |  | ≤ 0.39 µg/mL |
| Cc1[nH]c(=O)c(CNC(=O)c2ccc(F)nc2)c2c1CCC2 | microbial growth, resazurin | H37RV |  | > 50 µg/mL |
| O=C1NN=C(N=Cc2ccccc2)C1=NNn1c(-c2ccccc2)nc2ccccc2c1=O | microbial growth, resazurin | H37RV |  | 14.3 µM |
| O=C(NC(=O)c1cc2c(F)cc(F)cc2[nH]1)c1cccc(Cl)c1 | microplate alamarBlue | H37Rv |  | > 32 µg/mL |

For quick reference, copied from above:
| SMILES | assay | test system | conditions | MIC |
| --- | --- | --- | --- | --- |
| CC(C)(C)NC=C1C(=O)C(=O)c2ccccc2C1=O | resazurin microplate | H37Rv | 7 days + 24 h | 62 to 124 µM |
| Cc1[nH]c(=O)c(NC(=O)c2ccc(C(F)(F)F)nc2)c2c1CCCC2 | microbial growth, resazurin | H37RV |  | > 50 µg/mL |
| COc1ccccc1Cn1[se]c2ccccc2c1=O | microbial growth, resazurin | H37RV |  | 12.5 µg/mL |
| Cc1cc2c(cc1Cl)C=CC1(CCc3c(nnn3-c3ccc(Cl)cc3)C1)O2 (centres unmarked) | microbial growth, resazurin | H37RV | 7 days | 3.12 µg/mL |
| O=C1c2ccccc2NC(c2cc([N+](=O)[O-])ccc2O)N1/N=C/c1cc([N+](=O)[O-])ccc1O (centres unmarked) | microbial growth | ATCC25177 H37RA |  | 142 µM |
| Cc1c2c([nH]c(=O)c1CNC(=O)c1ccc([N+](=O)[O-])o1)CCCC2 | microbial growth, resazurin | H37RV |  | > 50 µg/mL |
